# Assay results gathered from unrelated publications.
# Parts stem from different laboratories: compare values within a part only. Values joined by “and” are separate records of one study, mostly repeats; a detail may differ.
# UniProt P10721, sequence (whole entry, unmodified, looked up): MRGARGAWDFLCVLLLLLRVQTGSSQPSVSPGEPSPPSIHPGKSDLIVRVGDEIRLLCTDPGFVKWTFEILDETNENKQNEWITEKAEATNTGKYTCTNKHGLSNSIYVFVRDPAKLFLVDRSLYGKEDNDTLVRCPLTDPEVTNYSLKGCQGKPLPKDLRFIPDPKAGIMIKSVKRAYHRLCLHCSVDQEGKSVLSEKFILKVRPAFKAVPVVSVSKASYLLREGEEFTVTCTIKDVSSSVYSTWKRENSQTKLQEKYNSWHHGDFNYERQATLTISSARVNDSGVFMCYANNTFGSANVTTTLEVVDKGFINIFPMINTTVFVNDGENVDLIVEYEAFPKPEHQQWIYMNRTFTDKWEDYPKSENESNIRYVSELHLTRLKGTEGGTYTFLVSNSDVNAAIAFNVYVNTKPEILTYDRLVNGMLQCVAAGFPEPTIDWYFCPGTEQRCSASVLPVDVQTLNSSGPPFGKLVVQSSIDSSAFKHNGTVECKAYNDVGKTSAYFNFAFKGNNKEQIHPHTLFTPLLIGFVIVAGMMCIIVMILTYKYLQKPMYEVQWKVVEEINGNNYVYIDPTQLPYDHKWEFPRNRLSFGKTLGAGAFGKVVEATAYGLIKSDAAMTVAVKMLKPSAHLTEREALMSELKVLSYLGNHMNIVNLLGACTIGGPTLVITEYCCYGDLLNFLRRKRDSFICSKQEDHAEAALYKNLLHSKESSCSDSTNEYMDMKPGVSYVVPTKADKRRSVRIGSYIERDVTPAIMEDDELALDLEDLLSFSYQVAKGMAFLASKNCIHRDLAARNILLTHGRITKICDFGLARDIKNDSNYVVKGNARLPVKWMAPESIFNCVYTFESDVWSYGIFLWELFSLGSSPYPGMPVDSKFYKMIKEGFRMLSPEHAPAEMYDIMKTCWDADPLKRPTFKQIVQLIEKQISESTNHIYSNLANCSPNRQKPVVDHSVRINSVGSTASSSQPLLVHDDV
# UniProt Q9NRM7, sequence (whole entry, looked up): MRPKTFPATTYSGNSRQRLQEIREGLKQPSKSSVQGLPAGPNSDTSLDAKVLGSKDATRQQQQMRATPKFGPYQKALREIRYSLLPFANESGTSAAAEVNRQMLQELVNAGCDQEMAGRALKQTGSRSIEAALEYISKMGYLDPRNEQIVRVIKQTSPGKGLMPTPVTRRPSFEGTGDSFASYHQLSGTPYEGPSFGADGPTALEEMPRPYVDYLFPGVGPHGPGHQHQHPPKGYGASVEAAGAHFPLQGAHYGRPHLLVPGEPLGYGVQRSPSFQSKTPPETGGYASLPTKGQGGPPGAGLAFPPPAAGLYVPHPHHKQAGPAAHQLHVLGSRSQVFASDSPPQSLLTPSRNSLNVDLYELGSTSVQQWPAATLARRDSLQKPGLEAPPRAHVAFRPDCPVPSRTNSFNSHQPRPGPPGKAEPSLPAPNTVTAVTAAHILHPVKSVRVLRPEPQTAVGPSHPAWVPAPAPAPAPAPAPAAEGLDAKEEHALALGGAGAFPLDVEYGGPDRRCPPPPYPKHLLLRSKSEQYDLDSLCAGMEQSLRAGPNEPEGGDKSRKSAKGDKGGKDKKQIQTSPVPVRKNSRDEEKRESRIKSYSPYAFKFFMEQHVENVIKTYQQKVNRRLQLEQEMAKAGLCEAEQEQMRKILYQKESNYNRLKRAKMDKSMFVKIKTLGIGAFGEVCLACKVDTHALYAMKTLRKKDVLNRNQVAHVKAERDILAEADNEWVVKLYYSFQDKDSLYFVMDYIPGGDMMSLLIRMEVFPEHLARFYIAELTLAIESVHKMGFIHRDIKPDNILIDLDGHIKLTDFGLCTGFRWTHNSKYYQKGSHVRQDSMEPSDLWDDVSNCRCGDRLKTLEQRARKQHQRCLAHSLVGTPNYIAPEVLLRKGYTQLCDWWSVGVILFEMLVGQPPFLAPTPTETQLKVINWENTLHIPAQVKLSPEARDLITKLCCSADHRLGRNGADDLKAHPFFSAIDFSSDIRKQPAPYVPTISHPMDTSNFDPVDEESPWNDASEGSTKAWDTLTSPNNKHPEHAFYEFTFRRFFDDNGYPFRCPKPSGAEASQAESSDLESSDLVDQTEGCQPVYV
# UniProt P37023, sequence (whole entry, looked up): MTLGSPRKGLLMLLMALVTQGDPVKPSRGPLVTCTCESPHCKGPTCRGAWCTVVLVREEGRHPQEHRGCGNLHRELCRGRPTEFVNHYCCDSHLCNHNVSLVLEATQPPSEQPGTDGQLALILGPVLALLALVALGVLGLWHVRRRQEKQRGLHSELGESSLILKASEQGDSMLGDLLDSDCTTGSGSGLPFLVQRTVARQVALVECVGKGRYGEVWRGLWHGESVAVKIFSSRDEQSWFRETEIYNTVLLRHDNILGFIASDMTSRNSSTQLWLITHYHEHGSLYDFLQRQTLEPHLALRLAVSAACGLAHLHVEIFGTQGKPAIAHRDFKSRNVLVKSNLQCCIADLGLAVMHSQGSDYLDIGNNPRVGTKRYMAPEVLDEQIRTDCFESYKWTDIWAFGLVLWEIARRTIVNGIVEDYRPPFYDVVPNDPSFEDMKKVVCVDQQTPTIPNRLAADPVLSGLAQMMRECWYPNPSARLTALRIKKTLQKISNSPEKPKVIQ
# UniProt O60331, sequence (whole entry, looked up): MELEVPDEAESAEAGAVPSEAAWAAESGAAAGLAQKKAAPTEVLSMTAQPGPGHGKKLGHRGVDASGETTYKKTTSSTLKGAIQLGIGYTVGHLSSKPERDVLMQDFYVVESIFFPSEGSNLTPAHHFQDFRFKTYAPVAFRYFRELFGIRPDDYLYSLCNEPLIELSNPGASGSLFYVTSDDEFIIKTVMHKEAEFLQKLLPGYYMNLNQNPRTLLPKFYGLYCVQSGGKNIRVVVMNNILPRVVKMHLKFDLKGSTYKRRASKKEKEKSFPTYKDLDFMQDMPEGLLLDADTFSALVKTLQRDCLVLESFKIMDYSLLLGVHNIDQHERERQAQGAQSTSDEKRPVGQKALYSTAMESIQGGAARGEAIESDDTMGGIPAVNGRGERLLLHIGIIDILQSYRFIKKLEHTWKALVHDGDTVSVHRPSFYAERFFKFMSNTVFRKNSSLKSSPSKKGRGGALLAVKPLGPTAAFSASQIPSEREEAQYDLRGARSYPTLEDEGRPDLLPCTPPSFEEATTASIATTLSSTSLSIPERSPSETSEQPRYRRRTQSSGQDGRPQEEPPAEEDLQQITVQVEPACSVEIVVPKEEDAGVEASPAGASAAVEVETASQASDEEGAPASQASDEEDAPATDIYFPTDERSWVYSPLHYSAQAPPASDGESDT
# UniProt Q9H422, sequence (whole entry, looked up): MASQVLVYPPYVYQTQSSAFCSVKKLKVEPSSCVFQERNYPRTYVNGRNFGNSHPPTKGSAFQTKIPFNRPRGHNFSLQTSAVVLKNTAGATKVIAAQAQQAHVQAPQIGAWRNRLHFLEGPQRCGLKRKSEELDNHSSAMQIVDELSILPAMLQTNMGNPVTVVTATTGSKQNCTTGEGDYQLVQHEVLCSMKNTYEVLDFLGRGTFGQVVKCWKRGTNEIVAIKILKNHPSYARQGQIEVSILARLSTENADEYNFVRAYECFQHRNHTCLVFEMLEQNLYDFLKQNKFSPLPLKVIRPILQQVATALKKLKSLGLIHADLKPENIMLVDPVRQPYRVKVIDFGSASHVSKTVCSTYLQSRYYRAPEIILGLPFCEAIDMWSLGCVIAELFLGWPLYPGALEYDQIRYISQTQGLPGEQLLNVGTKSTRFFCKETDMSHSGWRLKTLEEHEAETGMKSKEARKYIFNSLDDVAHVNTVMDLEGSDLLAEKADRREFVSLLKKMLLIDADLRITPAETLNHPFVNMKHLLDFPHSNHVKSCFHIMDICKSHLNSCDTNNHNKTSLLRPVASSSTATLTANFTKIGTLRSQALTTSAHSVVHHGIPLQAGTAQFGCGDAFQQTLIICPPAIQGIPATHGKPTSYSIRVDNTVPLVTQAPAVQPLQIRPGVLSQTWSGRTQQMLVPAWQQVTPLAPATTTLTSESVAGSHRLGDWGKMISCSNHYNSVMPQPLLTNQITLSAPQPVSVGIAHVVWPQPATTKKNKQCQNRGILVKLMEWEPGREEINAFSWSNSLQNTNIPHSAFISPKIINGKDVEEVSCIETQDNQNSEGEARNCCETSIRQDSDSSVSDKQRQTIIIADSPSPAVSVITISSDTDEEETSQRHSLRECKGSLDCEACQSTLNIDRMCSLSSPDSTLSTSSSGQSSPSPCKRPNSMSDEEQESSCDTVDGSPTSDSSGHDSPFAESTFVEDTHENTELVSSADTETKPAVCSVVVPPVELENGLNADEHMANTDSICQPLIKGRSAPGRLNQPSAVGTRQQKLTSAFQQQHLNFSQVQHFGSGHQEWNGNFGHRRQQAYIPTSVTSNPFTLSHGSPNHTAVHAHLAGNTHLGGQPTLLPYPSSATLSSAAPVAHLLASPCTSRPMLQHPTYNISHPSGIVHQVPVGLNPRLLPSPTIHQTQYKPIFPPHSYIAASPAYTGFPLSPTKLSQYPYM

# Series 1 — method: competition with immobilised ligand; concentration: 1 µM
# Compound: N#CC1(c2ccccn2)CCN(Cc2cc(C(=O)O)c(=O)n3ccccc23)CC1
target,effect on,remaining binding [%]
"Cyclin-dependent kinase 11B (CDK11B, Homo sapiens, UniProt P21127)",cell-free assay,100
"Protein kinase C epsilon type (PRKCE, Homo sapiens, UniProt Q02156)",cell-free assay,100
"Serine/threonine-protein kinase N2 (PKN2, Homo sapiens, UniProt Q16513)",cell-free assay,100
"Activin receptor type-1-like (ACVRL1, Homo sapiens, UniProt P37023)",binding,95
"Atypical kinase COQ8B, mitochondrial (COQ8B, Homo sapiens, UniProt Q96D53)",cell-free assay,90
"Phosphatidylinositol 4-phosphate 5-kinase type-1 gamma (PIP5K1C, Homo sapiens, UniProt O60331)",cell-free assay,89
"Protein kinase C iota type (PRKCI, Homo sapiens, UniProt P41743)",cell-free assay,100
"Serine/threonine-protein kinase LATS2 (LATS2, Homo sapiens, UniProt Q9NRM7)",cell-free assay,95
"Mast/stem cell growth factor receptor Kit (KIT, Homo sapiens, UniProt P10721, V559D/V654A)",cell-free assay,100
"Mitogen-activated protein kinase kinase kinase 3 (MAP3K3, Homo sapiens, UniProt Q99759)",cell-free assay,77
"Serine/threonine-protein kinase ULK3 (ULK3, Homo sapiens, UniProt Q6PHR2)",cell-free assay,89
"Homeodomain-interacting protein kinase 3 (HIPK3, Homo sapiens, UniProt Q9H422)",cell-free assay,84
"Mast/stem cell growth factor receptor Kit (KIT, Homo sapiens, UniProt P10721, T670I/V559D)",cell-free assay,100
"Serine/threonine-protein kinase/endoribonuclease IRE1 (ERN1, Homo sapiens, UniProt O75460)",cell-free assay,81
"cAMP-dependent protein kinase catalytic subunit PRKX (PRKX, Homo sapiens, UniProt P51817)",cell-free assay,100

# Series 2 — organism: Sarcocystis neurona; effect on: parasite growth; concentration: 10 µM; setting: secondary screen
Compound,inhibition [%]
CCCCC/C=C\C/C=C\C/C=C\C/C=C\CCCC(=O)Nc1ccc(O)cc1,-2.7
C[C@]12CCC(=O)C[C@@H]1CC[C@@H]1[C@@H]2CC[C@@]2(C)[C@H]1CC[C@]2(C)O,0.249
O=C(O)C(Cl)Cl,-20.8
Oc1ccc2c3c1O[C@H]1[C@@H](O)CC[C@@]4(O)[C@@H](C2)N(CC2CCC2)CC[C@]314,-47.1
C[C@]12CC[C@H]3[C@@H](CCC4=CC(=O)CC[C@@H]43)[C@@H]1CC[C@@H]2O,0.5

# Series 3 — cell line: HEK-293T/ACE2; concentration: concentration not given; time: 16 (unit not given); reference: vehicle
SMILES,viability [%]
Cc1ccc(-c2cc(C(F)(F)F)nn2-c2ccc(S(N)(=O)=O)cc2)cc1,99.2
COc1ccc(Cl)cc1C(=O)NCCc1ccc(S(=O)(=O)NC(=O)NC2CCCCC2)cc1,97.8
CC(=O)[C@H]1CC[C@H]2[C@@H]3CCC4=CC(=O)CC[C@]4(C)[C@H]3CC[C@]12C,102
CC(C)OC(=O)CCC/C=C\C[C@@H]1[C@@H](CC[C@@H](O)CCc2ccccc2)[C@H](O)C[C@@H]1O,97.8
CN(C)CCn1nnnc1SCC1=C(C(=O)O)N2C(=O)[C@@H](NC(=O)Cc3csc(N)n3)[C@H]2SC1,101

# Series 4 — organism: Leishmania donovani; effect on: parasite growth
# Structure (SMILES): c1ccc(Oc2ccc(Nc3c4c(nc5ccccc35)CCC4)cc2)cc1
strain,sample,concentration,setting,inhibition
DD8 amphotericin B-resistant,promastigotes,0.33 µM,,10% and 5% and 8% and 2%
DD8 amphotericin B-resistant,intracellular amastigotes,0.4 µM,,36% and 37% and 32% and 35%
,,0.2 µM,"intracellular, amastigote",3%
DD8 amphotericin B-resistant,promastigotes,0.0066 µM,,1% and 2% and 5%

# Series 5 — effect on: enzyme activity; mode: inhibitor; method: radiometric; concentration: 0.5 µM
# Target: Serine/threonine-protein kinase 33 (STK33, Homo sapiens, UniProt Q9BYT3)
# UniProt Q9BYT3, sequence (whole entry, looked up): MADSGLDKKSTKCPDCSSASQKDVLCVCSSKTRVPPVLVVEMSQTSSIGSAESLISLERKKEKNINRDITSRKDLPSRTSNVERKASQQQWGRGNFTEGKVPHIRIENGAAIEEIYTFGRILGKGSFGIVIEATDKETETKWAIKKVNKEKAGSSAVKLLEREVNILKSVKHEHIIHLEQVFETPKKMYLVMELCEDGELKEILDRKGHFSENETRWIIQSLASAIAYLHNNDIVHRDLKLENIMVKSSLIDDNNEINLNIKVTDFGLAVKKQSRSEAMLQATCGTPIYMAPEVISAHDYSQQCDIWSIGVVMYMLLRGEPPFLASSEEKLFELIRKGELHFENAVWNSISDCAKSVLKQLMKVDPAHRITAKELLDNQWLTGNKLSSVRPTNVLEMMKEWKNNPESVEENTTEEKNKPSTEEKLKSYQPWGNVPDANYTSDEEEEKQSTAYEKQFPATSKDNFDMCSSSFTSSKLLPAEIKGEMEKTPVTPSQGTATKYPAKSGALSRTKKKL
Structure (SMILES),remaining activity
CNC(=O)c1cc(Oc2ccc(NC(=O)Nc3ccc(Cl)c(C(F)(F)F)c3)cc2)ccn1,83.9%
O=C(CCCc1ccc(-c2ccccc2F)cc1)Nc1ccc(O)cc1,97%
COc1ccc(C(=O)Nc2sc3c(c2C(N)=O)CCCC3)cc1OC,99.5%
O=c1cc(N2CCNCC2)oc2c(-c3ccccc3)cccc12,86.1%
COc1cc2ncnc(Nc3ccc(F)c(Cl)c3)c2cc1OCCCN1CCOCC1,90.4%

# Some of these lines once more (series 1):
target,effect on,remaining binding [%]
"Serine/threonine-protein kinase LATS2 (LATS2, Homo sapiens, UniProt Q9NRM7)",cell-free assay,95
"Protein kinase C epsilon type (PRKCE, Homo sapiens, UniProt Q02156)",cell-free assay,100
"cAMP-dependent protein kinase catalytic subunit PRKX (PRKX, Homo sapiens, UniProt P51817)",cell-free assay,100
"Serine/threonine-protein kinase ULK3 (ULK3, Homo sapiens, UniProt Q6PHR2)",cell-free assay,89
